Experimental data of several laboratories.
A part holds a random share of what one study measured. Changes are numbered by the printed parent chain.

Study 1
Target: RNA binding protein fox-1 homolog 2, RRM domain, GST-SBP tag (RBFOX2, Homo sapiens, UniProt O43251-10, residues 100-194)
Technique: RNA Bind-n-Seq
Form: RNA
Sample: in vitro
Concentration: 365 nM
Setting: natural RNA segment, single round, ends assumed
Relative to: no-protein control
Reading: higher = stronger binding
Quantity: RBNS enrichment (R)
Shared flanks, not repeated: GGGAGUUCUACAGUCCGACGAUC … UGGAAUUCUCGGGUGCCAA
Construct (chain): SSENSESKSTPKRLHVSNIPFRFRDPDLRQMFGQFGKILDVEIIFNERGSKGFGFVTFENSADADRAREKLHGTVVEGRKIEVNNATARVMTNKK
UGUUGAGAGACAUAGUCUCAUUUCCCUCUCUACCUUCUAAGCUACCCUUCUUGCUAAUCCUUCUUCAGCUCUGAGGGUUGGAAUCAUAACUCACAUUCCUCAUUCCUAAG: 0.413
UGCAUGCUUCCCGAUGGCCCACGGCAGGAGGUGUGUGGAAGUGUAAGGCCUAAGAUGCUCACAGAGGUCCCUCAUGACCUCCCUUCCCCAACUCCCGAAUCCUCUCUUGA: 0.28
ACUUGUUUGCACGACCACUUCCAGCUUGCUGCUUCCUUCAGUUCCCCAGGCUCCUCCUCCAAAUGCCAGCUGUGCCCACAAGCUGUUCUUAGGGCUCACACUCGCCUUUU: 0.988
UGUCAGGAGGGAAGAGGGGAGUCUACGCUCACAACCCAGGCACUGGACAGCUGCAGCCUGGCUAGGCCACUGACCCCACAGUCCAUAUAAGCUGACCAUGCAGCUCGCUG: 0.398
GUCCCUACGCAAUAGCAGCUGCCUGUGGGGAAGAAGGGCUGCCCAGCCAGCUGGUUCUCCCGGGACACCAGCAGAUCCACACCCUGGGCACCUCCGUGUUUGGUCUUUUU: 0.339
GGAGAACUUGGUGUCUCACCCUGGGUACCCAUUCCUGGUGUAUGGAAGCACCUCCUUCACGGUCAGGGGGCCUGUGCUUGGCUUUCUGCCAUCAGACAUUAAGCUGUAGC: 0.233
ACAGGGGUGGUUGCUAAGGUUCCGUACCUGCUCUUUAUAAAUUUAUAGUGGCUUUAUCCUGACAUAGGAAAGUUCAGCUGCAGGGGAGGAGGAGGAGACAGUCUUCCUCU: 0.423
CGGGAACCAGACCUCUCACCGGAAAGACCGAUUAACCAUGUCACCACCACGCCAUCAUCGUCACCGUUGACAGAACAGUCCUUAAUCCAGAAAGCCUGACAUGAAGGAAG: 0.319
UGGAUGGGGUCAAGAGGCCAGGCCUGGCACAUUUUGGAGUGUCCUGGCUACCAGCUCUCACCUACACCCACGCACCCCCCCACACACUAUGCUCUCUCAAGAAUGUAAUU: 0.514
UCCAGGAGAGCAGAUGUGAAGGACCUGCACCAGGAUGGUGGUUAGCAACAGUGGCCCGUGCCAAAGCACUUACCAAAGUGAUGAUGACUAAGGCCCUGUCAUUAAUUCCA: 0.302

Study 2
Target: CCNF, cyclin fold, Cln2 fusion (human)
Technique: yeast growth competition, sequencing
Sample: yeast
Setting: strong parent motif
Relative to: not given
Reading: higher = stronger binding
Quantity: normalised enrichment score
Parent: RBL1 docking peptide (human); GSAKRRLFGEDPP
GSAKRRMFGEDPP [L7M]: 1.01
GWAKRRLFGEDPP [S2W]: 5.77
GGAKRRLFGEDPP [S2G]: 6.89
GSAKRRLFFEDPP [G9F]: 9.12
GSAKRRLFGEDGP [P12G]: 6.48
GSAERRLFGEDPP [K4E]: 0.446
GSAKRRLIGEDPP [F8I]: 0.74
GSAKMRLFGEDPP [R5M]: 0.488

Study 3
Target: Histone acetyltransferase KAT6A, winged helix 1, GST fusion (KAT6A, Homo sapiens, UniProt Q92794, residues 1-85)
Technique: protein binding microarray
Form: double-stranded DNA, one strand shown
Sample: in vitro
Concentration: not given
Setting: 8-mer, flanks averaged, mean of 2 arrays, mostly near background
Relative to: not given
Reading: higher = stronger binding
Quantity: E-score
Construct (chain): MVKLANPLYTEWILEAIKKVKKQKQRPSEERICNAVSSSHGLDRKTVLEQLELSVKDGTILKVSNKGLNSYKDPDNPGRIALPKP
CGGGACTA: 0.205
CGGACCAG: 0.14
GGCGGCCA: 0.24
CCACGATC: -0.152
CGACTACA: -0.172
AAGCTTAA: -0.0911
CGCCAGTA: 0.117
AAAGCCAT: -0.0266
ATTGGATA: -0.129
CCTGCTGA: -0.188
CTGGCGAA: -0.13
AGCTAGCT: -0.448

Mixed results
PhoQ, residues 284 288 289 292 302 303 SSYNSA  fold induction (PhoP, residues 12 14 15 18 19 LHSVQ (Escherichia coli, UniProt P23836); Sort-seq, item: YFP reporter; E. coli; PhoQ-PhoP variant library, with: 10 µM Mg2+; relative to: high Mg2+ state, higher = stronger signaling): 1.05

For quick reference, copied from above (study 1):
GGAGAACUUGGUGUCUCACCCUGGGUACCCAUUCCUGGUGUAUGGAAGCACCUCCUUCACGGUCAGGGGGCCUGUGCUUGGCUUUCUGCCAUCAGACAUUAAGCUGUAGC: 0.233
CGGGAACCAGACCUCUCACCGGAAAGACCGAUUAACCAUGUCACCACCACGCCAUCAUCGUCACCGUUGACAGAACAGUCCUUAAUCCAGAAAGCCUGACAUGAAGGAAG: 0.319
UCCAGGAGAGCAGAUGUGAAGGACCUGCACCAGGAUGGUGGUUAGCAACAGUGGCCCGUGCCAAAGCACUUACCAAAGUGAUGAUGACUAAGGCCCUGUCAUUAAUUCCA: 0.302
ACAGGGGUGGUUGCUAAGGUUCCGUACCUGCUCUUUAUAAAUUUAUAGUGGCUUUAUCCUGACAUAGGAAAGUUCAGCUGCAGGGGAGGAGGAGGAGACAGUCUUCCUCU: 0.423
